# Experimental data collected from several papers.
# Parts stem from different laboratories: compare values within a part only.
# Sequence of UniProt P10721 (whole entry, unmodified, looked up): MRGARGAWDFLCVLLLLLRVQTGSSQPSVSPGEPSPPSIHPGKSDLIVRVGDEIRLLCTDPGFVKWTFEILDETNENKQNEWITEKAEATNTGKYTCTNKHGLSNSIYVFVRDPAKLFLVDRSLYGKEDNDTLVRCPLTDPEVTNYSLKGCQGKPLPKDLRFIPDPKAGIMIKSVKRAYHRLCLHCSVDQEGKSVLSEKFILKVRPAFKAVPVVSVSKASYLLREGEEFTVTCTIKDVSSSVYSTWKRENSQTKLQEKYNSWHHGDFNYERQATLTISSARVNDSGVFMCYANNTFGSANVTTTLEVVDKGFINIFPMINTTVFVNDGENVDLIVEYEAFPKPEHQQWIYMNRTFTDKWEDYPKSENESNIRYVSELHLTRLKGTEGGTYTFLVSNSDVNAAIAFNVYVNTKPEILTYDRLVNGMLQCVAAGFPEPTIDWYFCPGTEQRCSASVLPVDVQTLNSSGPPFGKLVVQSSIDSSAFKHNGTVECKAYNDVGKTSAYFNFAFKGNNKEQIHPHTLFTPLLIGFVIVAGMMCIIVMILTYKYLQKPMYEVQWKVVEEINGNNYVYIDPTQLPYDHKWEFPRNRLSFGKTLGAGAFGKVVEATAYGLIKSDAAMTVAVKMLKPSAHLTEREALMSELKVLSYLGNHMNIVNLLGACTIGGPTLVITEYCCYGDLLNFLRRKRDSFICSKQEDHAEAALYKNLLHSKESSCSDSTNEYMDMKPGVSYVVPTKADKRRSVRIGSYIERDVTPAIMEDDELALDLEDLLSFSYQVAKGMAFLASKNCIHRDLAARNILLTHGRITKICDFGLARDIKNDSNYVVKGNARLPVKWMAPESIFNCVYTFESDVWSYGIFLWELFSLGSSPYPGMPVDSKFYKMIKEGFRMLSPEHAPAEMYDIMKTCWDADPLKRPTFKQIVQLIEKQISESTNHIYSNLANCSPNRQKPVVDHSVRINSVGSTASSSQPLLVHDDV
# Sequence of UniProt P09769 (whole entry, looked up): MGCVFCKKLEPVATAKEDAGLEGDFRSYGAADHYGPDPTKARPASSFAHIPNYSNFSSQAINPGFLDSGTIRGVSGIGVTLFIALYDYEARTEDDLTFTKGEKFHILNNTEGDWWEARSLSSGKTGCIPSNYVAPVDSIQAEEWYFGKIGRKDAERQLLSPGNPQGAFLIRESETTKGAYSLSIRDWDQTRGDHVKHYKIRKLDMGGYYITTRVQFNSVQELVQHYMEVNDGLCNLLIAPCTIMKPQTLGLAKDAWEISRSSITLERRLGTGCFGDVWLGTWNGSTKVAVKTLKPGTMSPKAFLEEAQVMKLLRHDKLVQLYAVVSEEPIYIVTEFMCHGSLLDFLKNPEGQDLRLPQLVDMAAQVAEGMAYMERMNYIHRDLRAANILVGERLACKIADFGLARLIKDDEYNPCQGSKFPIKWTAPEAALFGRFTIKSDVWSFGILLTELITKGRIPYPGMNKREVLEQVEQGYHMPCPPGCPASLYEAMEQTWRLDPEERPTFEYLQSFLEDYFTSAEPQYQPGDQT
# Sequence of UniProt P53779 (whole entry, looked up): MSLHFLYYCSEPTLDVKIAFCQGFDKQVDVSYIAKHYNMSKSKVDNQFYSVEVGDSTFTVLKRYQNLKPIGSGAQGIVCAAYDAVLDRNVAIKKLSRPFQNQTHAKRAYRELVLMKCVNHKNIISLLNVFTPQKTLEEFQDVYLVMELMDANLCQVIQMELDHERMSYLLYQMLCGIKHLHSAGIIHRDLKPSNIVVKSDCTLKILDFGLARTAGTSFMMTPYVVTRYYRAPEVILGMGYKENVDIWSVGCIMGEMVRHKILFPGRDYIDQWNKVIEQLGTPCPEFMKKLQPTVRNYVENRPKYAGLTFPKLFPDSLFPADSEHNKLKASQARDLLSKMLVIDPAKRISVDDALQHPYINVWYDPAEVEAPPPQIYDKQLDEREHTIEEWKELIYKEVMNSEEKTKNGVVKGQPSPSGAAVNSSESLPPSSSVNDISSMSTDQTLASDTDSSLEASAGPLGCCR
# Sequence of UniProt P42336 (whole entry, unmodified, looked up): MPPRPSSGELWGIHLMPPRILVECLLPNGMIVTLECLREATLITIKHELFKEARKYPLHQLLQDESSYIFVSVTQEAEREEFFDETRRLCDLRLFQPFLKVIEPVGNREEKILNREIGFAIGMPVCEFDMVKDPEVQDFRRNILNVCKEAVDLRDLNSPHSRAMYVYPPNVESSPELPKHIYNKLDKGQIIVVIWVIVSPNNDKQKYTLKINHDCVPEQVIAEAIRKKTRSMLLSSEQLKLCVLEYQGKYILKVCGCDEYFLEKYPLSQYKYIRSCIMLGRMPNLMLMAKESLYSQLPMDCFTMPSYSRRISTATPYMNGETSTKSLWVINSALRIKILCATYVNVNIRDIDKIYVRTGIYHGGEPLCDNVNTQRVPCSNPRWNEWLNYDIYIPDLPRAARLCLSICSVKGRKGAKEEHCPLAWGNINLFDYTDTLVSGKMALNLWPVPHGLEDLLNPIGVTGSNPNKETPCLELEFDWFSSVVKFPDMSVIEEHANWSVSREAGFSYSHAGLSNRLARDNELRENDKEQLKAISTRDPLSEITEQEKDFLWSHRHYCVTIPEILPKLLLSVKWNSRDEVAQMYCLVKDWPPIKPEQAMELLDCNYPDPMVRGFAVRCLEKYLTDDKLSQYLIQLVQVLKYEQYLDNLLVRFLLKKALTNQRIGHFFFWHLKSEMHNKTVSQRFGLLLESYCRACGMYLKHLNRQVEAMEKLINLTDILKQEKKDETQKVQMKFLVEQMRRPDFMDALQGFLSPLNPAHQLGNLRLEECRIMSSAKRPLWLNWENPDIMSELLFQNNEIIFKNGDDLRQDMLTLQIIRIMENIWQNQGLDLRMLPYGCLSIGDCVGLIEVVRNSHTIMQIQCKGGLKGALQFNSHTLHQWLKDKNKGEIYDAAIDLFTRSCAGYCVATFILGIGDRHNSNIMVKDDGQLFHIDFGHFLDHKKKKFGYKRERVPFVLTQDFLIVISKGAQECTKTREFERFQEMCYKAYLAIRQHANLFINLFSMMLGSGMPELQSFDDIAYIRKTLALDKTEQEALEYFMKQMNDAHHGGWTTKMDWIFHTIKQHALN
# Sequence of UniProt O15530 (whole entry, looked up): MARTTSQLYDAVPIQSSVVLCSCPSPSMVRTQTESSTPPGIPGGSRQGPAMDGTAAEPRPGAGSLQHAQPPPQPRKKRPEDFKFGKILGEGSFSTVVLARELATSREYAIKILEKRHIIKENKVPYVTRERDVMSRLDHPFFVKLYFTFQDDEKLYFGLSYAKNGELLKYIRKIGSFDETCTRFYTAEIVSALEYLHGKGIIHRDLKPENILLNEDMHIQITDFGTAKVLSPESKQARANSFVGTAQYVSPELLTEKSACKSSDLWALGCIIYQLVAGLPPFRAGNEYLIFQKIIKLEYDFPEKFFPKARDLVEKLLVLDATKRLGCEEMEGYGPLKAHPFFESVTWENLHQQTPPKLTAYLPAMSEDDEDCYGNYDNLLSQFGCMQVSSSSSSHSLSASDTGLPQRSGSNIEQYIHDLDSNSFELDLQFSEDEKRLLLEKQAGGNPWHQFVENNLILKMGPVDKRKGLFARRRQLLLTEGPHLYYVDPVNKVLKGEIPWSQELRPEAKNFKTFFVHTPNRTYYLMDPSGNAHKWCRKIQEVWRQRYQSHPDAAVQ
# Sequence of UniProt P11309 (whole entry, looked up): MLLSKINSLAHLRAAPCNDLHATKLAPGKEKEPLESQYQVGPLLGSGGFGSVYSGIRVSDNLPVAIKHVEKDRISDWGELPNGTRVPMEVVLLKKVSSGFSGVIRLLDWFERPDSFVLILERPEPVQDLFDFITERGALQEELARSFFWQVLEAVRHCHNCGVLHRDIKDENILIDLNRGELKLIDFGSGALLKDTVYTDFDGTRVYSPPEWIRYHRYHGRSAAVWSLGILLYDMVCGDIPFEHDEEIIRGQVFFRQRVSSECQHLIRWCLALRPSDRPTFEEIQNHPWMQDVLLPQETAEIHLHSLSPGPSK

# Series 1
# Compound: C[C@@H](c1cccc(C#N)c1)n1cc(Cl)cc(C(N)=O)c1=N
# Technique: competition with immobilised ligand
# Concentration: 1 µM
target,assay,remaining binding
"Tyrosine-protein kinase ABL1, phosphorylated (ABL1, Homo sapiens, UniProt P00519, F317L)",cell-free assay,0%
"Mast/stem cell growth factor receptor Kit, autoinhibited (KIT, Homo sapiens, UniProt P10721)",cell-free assay,78%
"EGFR (Homo sapiens, UniProt P00533, G719S)",cell-free assay,100%
"SRMS (Homo sapiens, UniProt Q9H3Y6)",cell-free assay,83%
"PIM1 (Homo sapiens, UniProt P11309)",cell-free assay,100%
"MAP3K10 (Homo sapiens, UniProt Q02779)",cell-free assay,77%
"Tyrosine-protein kinase ABL1, non-phosphorylated (ABL1, Homo sapiens, UniProt P00519, F317I)",binding,76%
"Tyrosine-protein kinase ABL1, non-phosphorylated (ABL1, Homo sapiens, UniProt P00519, Q252H)",cell-free assay,68%
"STK32C (Homo sapiens, UniProt Q86UX6)",cell-free assay,100%
"MAST1 (Homo sapiens, UniProt Q9Y2H9)",cell-free assay,100%
"DAPK2 (Homo sapiens, UniProt Q9UIK4)",cell-free assay,100%
"RIPK2 (Homo sapiens, UniProt O43353)",cell-free assay,88%
"FGR (Homo sapiens, UniProt P09769)",cell-free assay,87%
"MARK3 (Homo sapiens, UniProt P27448)",cell-free assay,98%
"PDPK1 (Homo sapiens, UniProt O15530)",cell-free assay,100%
"MAPK10 (Homo sapiens, UniProt P53779)",cell-free assay,100%
"RET (Homo sapiens, UniProt P07949, V804L)",cell-free assay,86%
"PRKACA (Homo sapiens, UniProt P17612)",cell-free assay,100%
"PIK3CA (Homo sapiens, UniProt P42336, E545A)",cell-free assay,98%
"MAP4K5 (Homo sapiens, UniProt Q9Y4K4)",cell-free assay,96%
"KIT (Homo sapiens, UniProt P10721, T670I/V559D)",cell-free assay,100%
"CSK (Homo sapiens, UniProt P41240)",cell-free assay,97%
"MAP3K1 (Homo sapiens, UniProt Q13233)",cell-free assay,82%
"EPHA3 (Homo sapiens, UniProt P29320)",cell-free assay,92%

# Series 2
# Target: Calcium/calmodulin-dependent protein kinase type II subunit alpha (CAMK2A, Homo sapiens, UniProt Q9UQM7)
# Sequence of UniProt Q9UQM7 (whole entry, looked up): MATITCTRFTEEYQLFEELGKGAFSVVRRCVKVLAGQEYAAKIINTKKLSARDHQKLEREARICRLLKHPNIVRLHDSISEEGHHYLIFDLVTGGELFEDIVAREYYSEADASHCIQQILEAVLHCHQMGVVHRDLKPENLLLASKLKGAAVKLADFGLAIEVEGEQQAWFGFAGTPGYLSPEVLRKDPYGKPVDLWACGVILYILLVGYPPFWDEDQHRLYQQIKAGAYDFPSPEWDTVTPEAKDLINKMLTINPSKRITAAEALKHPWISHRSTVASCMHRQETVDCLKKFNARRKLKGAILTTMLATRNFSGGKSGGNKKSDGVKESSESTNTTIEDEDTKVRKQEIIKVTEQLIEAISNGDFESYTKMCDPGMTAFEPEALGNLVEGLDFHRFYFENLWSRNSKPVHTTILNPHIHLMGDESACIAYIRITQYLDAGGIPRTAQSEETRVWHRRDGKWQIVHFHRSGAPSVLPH
# Observed: enzyme activity
# Mode: inhibitor
# Concentration: 10 µM
SMILES,inhibition
Cc1cccc(C)c1NC(=O)c1cc(S(N)(=O)=O)c(Cl)cc1O,-14%
COc1cc(-c2coc3cc4c(c(OC)c3c2=O)OCO4)cc(OC)c1OC,11%
COc1ccc([C@@H]2CC(=O)c3c(O)cc(O[C@@H]4O[C@H](CO)[C@@H](O)[C@H](O)[C@H]4O)cc3O2)cc1O,17%
O=C(O)c1cc(O)c2c(c1)[C@H]([C@H]1c3cccc(O)c3C(=O)c3c(O)cc(C(=O)O)cc31)c1cccc(O)c1C2=O,-27%
CC(C)=CCOc1c2ccoc2cc2oc(=O)ccc12,-16%
COc1cc(C(=O)NCc2ccc(OCCN(C)C)cc2)cc(OC)c1OC,6%
COc1ccc(-c2oc3cc(OC)c(OC)c(O)c3c(=O)c2OC)cc1OC,-8%
O=c1c(O)c(-c2ccc(O)cc2O)oc2cc(O)cc(O)c12,84%

# Series 3
# Target: Homeodomain-interacting protein kinase 4 (HIPK4, Homo sapiens, UniProt Q8NE63)
# Sequence of UniProt Q8NE63 (whole entry, looked up): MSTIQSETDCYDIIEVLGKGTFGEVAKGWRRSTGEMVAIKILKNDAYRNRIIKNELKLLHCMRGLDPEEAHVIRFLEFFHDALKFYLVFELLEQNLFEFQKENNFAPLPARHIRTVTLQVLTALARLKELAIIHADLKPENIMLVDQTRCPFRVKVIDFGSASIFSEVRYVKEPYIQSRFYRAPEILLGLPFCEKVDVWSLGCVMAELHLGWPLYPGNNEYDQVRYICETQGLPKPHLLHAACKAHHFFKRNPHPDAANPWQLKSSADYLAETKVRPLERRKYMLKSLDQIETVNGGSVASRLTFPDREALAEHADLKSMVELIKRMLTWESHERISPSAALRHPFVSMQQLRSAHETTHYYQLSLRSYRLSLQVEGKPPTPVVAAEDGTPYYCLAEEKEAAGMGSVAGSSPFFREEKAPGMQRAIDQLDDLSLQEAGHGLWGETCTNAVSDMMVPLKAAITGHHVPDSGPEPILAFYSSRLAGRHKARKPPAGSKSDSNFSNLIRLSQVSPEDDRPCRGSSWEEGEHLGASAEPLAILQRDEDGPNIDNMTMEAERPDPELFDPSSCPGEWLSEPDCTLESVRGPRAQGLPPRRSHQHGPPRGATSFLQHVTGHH
# Observed: enzyme activity
# Mode: inhibitor
# Concentration: 0.5 µM
# Relative to: control
SMILES,remaining activity [%]
O=C(NC(NC(=S)Nc1ccc(F)c([N+](=O)[O-])c1)C(Cl)(Cl)Cl)C(c1ccccc1)c1ccccc1 (stereo not drawn),104
Cc1cc2ncc(-c3ccccc3)nc2cc1C,120
c1ccc(-c2cnc(Nc3ccc(OCCN4CCCC4)cc3)s2)cc1,98.5
Nc1cccc(-c2cc3c(Oc4cccc(O)c4)ncnc3[nH]2)c1,103
COc1cc2ncnc(Nc3cccc(Cl)c3)c2cc1OC,64.4
Cc1cn(-c2cc(NC(=O)c3ccc(C)c(Nc4nccc(-c5cccnc5)n4)c3)cc(C(F)(F)F)c2)cn1,105
c1ccc(-c2[nH]ncc2-c2ccnc3ccccc23)nc1,89.9
O=c1cc(-c2cccc3c2Sc2ccccc2S3)oc(N2CCOCC2)c1,100
N#C/C(=C\c1ccc(O)c(O)c1)C(=O)NCc1ccccc1,106
CCN(CC)CCNC(=O)c1c(C)[nH]c(/C=C2\C(=O)Nc3ccc(Cl)cc32)c1C,61.7
Cc1nc2cc3nc(-c4cccs4)cnc3cc2n1C,103
CCOc1nc(NC(=O)Cc2cc(OC)ccc2OC)cc(N)c1C#N,106
CCN(CC)CCNC(=O)c1c(C)[nH]c(/C=C2\C(=O)Nc3ccc(F)cc32)c1C,74.7
C[C@@H]1CCN(C(=O)CC#N)C[C@@H]1N(C)c1ncnc2[nH]ccc12,96.2
COc1cc2c(cc1OC)-c1[nH]nc(Nc3cccc(F)c3)c1C2,90
COc1cc2ncnc(Nc3ccc(O)c(Br)c3)c2cc1OC,107
N#Cc1c(NC(=O)c2cccc3ccccc23)sc2c1CCCC2,110
CCN(CC)C(=O)c1ccc(Nc2nc(OCC3CCCCC3)c3[nH]cnc3n2)cc1,96.5
CN([C@@H](Cc1ccc(OS(=O)(=O)c2cccc3cnccc23)cc1)C(=O)N1CCN(c2ccccc2)CC1)S(=O)(=O)c1cccc2cnccc12,105
O=C1c2ccccc2-c2n[nH]c3cccc1c23,107
CN(C)C[C@H]1CCn2c(c(C3=C(c4cn(C)c5ccccc45)C(=O)NC3=O)c3ccccc32)C1,95.7
O=C1C(Cl)=C(N2C(=O)CCC2=O)C(=O)c2ccccc21,98.2

# Series 4
# Species: human
# Medium: microsomes or S9
# Concentration: 2 µM
# Time: 0.5 h
Compound,remaining compound
CCC(NC(=O)CCCc1ccc(Cl)cc1)c1ncnn1CC (stereo not drawn),6.95%
COCSc1c(C(O)(CF)c2cnn(C)c2SCOC)cnn1C,65.6%
CC(=O)N(c1ccccc1)C(c1ccccc1)c1nc2ccccc2nc1O (stereo not drawn),76.4%
Cc1cc(N2C(=O)CC(SCCN)C2=O)no1 (stereo not drawn),76.6%
CCOC(=O)c1c(C)nc2c(c3c(n2Cc2ccc(OC)cc2)CCC3)c1-c1ccc2c3c(ccnc13)CCO2,0.393%
Cc1c(-c2cnn(C)c2C)nn(-c2ccc(Cl)cc2)c1-c1cnn(C)c1C,1.03%
COCCNS(=O)(=O)c1cc(C(=O)O)cc(-c2cccc(F)c2F)c1,> 99%
c1ccc2c(c1)OCC(c1nn3c(Cn4cnc5ccccc54)nnc3s1)O2 (stereo not drawn),13.7%
CCOC(=O)N1CCN(C(=O)c2ccc(NCCc3ccc(Cl)cc3)c(S(=O)(=O)Nc3ccc(OCC)cc3)c2)CC1,2.67%

# A few entries again (series 2):
SMILES,inhibition
COc1ccc([C@@H]2CC(=O)c3c(O)cc(O[C@@H]4O[C@H](CO)[C@@H](O)[C@H](O)[C@H]4O)cc3O2)cc1O,17%
CC(C)=CCOc1c2ccoc2cc2oc(=O)ccc12,-16%
COc1ccc(-c2oc3cc(OC)c(OC)c(O)c3c(=O)c2OC)cc1OC,-8%
